Assay results of several laboratories.
Lines come from different studies, so protocols differ. Values joined by “and” are separate records of one study, mostly repeats; a detail may differ. ± marks the error that the study gave. Values after ≈ are worked out from the molar mass of the structure shown.

CCN(CC)C(=O)[C@@H]1C=C2c3cccc4c3c(cn4C(=O)c3ccco3)C[C@H]2N(C)C1 — result for “head-twitch response count”: 41.8 (magnetometer; C57BL/6J mouse, male; intraperitoneal, 1 mg/kg, 30 min session).
CCOC(=O)/C=C/[C@H](C[C@@H]1CCNC1=O)NC(=O)[C@@H](CC(=O)[C@@H](NC(=O)c1cc(C)on1)C(C)C)Cc1ccc(F)cc1 has an IC50 of 0.005 ± 0.002 µM (Rhinovirus A; viral replication, high-content imaging; RV-A16).
CCN(CC)C(=O)[C@@H]1C=C2c3cccc4c3c(cn4C(=O)c3cccs3)C[C@H]2N(C)C1 has an ED50 of 0.78 mg/kg (head-twitch response, magnetometer detection; mouse C57BL/6J male; intraperitoneal, 30 min session).
The IC50 of CC[C@@H]1CN2CCc3c([nH]c4cccc(OC)c34)[C@@H]2C[C@@H]1/C(=C\OC)C(=O)OC is reported as 0.81 µg/mL and 0.72 µg/mL (rabbit anti-mitragynine polyclonal IgG; antigen binding, competitor, competitive indirect ELISA; 10% methanol; 90 min antibody-standard, 30 min antibody-antigen incubation).
Nc1ncc(-c2cc(-c3cnn(CC(F)(F)F)c3)ncc2F)nc1C(=O)NC1CNCC(F)C1 (centres unmarked) has a remaining binding of 99% (ABL1(F317I)-phosphorylated; KINOMEscan competition binding; 1 µM; relative to: DMSO control).
For Cc1ccc(C2=CC(C)(C)Oc3ccc(-c4ccc(-c5ccc(C(=O)O)cc5)[nH]4)cc32)cc1, “cauda epididymal sperm count” read “decreased” (CD1 mouse male; 10 mg/kg for 2 weeks, after end of dosing).
With O=C(C[Se]C(=O)c1cc2ccccc2s1)Nc1cccc(C(F)(F)F)c1 the CC50 was 6.24 µM (NCI60 renal subpanel; cytotoxicity, inhibitor; five-dose).
CC(C)(C)C(=O)OCOP(=O)(OCOC(=O)C(C)(C)C)C1CCCN(O)C1=O (centres unmarked) has a CC50 of > 100 µM (786-0).
For CN1C(=O)C(C2C3=C(CC(C)(C)CC3=O)Oc3ccc([N+](=O)[O-])cc32)C(=O)N(C)C1=O (centres unmarked), “mean lipid content” read 0.73 OD492 (3T3-L1 mature adipocytes; lipolysis, Oil Red O staining; IC20).
With Cc1ccc2c(n1)c(-c1cccc(S(C)(=O)=O)c1)c(C)n2C/C(F)=C/CN the inhibition was -9% (NMDA glutamate receptor (rat); binding, radioligand binding; rat tissue; 10 µM, Polyamine).
Cc1cc(C(=O)Nc2nc3cccc(C)c3n2[C@H]2CCCCN(C(=O)/C=C/CN(C)C)C2)ccn1 gave a survival of 16.7% (Trypanosoma brucei; STIB795, mouse acute HAT model; oral, 25 mg/kg once daily for 4 days, day 28; relative to: mice).
The reticulated platelets of O=C(O)c1ccc(-c2nc(-c3ccccc3Cl)c3sccn23)cc1 is reported as 17.2% and 11.1% and 22.1% and 19.9% (C57BL/6 mice, 5-fluorouracil treated; dose not given, day 10).
With O=C(C[Se]C(=O)c1ccccc1Nc1ccccc1)Nc1cccc(C(F)(F)F)c1 the CC50 was 6.08 µM (NCI60 NSCLC subpanel; NCI60 five-dose screen).
CC(C)CC(C(=O)N1CC2(CC1C#N)C(=O)Nc1ccccc12)N(C)C(=O)c1cc2c(F)cc(F)c(F)c2[nH]1 (centres unmarked) gave an inhibition of 57% (human coronavirus 229E; viral replication; MRC-5; 0.001563 µM).
C#CCNC(=O)C1(O/N=C(\C(=O)N[C@@H]2C(=O)N(OS(=O)(=O)O)C2(C)C)c2csc(N)n2)CC1 has an MIC of 4 µg/mL (≈ 7.99 µM) (Enterobacter aerogenes; agar dilution; ATCC 13048 susceptible).
The mRNA level of CCCC[C@@H]1NC(=O)[C@H](Cc2ccc(O)cc2)NC(=O)[C@@H]2CCCN2C(=O)[C@H](CC(=O)O)NC(=O)[C@H](C)NC(=O)[C@H](Cc2ccccc2)NC(=O)[C@@H]2CSCCC(=O)N3CN(CN(C3)C(=O)CCSC[C@@H](C(=O)N[C@@H](C)C(N)=O)NC1=O)C(=O)CCSC[C@H](NC(C)=O)C(=O)N[C@@H](CC(C)(C)C)C(=O)N1CCC[C@H]1C(=O)N[C@@H](CCC(=O)O)C(=O)N[C@H](CCCCNC(=O)CCc1cn(CCOCCOCCOCCN(CCOCCOCCOCCC(=O)N[C@H]3CSCCC(=O)N4CN5CN(C4)C(=O)CCSC[C@H](NC(=O)[C@@H](CC(=O)O)NC(=O)[C@H](Cc4cccc6ccccc46)NC(=O)[C@@H]4CCCN4C3=O)C(=O)N[C@@H](CCSC)C(=O)N[C@@H](CCCCNC(=N)N)C(=O)N[C@@H](CC(=O)O)C(=O)N[C@@H](Cc3c[nH]c4ccccc34)C(=O)N[C@@H](CO)C(=O)N[C@@H]([C@@H](C)O)C(=O)N3CCC[C@H]3C(=O)N3C[C@H](O)C[C@H]3C(=O)N[C@@H](Cc3c[nH]c4ccccc34)C(=O)N[C@H](C(N)=O)CSCCC5=O)CCOCCOCCOCCn3cc(CCC(=O)NCCCC[C@H]4NC(=O)[C@H](CCC(=O)O)NC(=O)[C@@H]5CCCN5C(=O)[C@H](CC(C)(C)C)NC(=O)[C@@H](NC(C)=O)CSCCC(=O)N5CN6CN(C5)C(=O)CCSC[C@H](NC(=O)[C@H](Cc5ccc(O)cc5)NC(=O)[C@@H]5CCCN5C4=O)C(=O)N[C@@H](Cc4ccccc4)C(=O)N[C@@H](C)C(=O)N[C@@H](CC(=O)O)C(=O)N4CCC[C@H]4C(=O)N[C@@H](Cc4ccc(O)cc4)C(=O)N[C@@H](CCCC)C(=O)N[C@H](C(=O)N[C@@H](C)C(N)=O)CSCCC6=O)nn3)nn1)C(=O)N1CCC[C@H]1C(=O)N[C@@H](Cc1ccc(O)cc1)C(=O)N2 is reported as 5.91 (NanoString, measured: Clec4n-mRNA; mouse bearing MC38-Nectin-4 tumour, circulating white blood cells; 5 mg/kg, 24 h after dosing, unit not given; relative to: vehicle).
The relative abundance of COc1ccccc1-c1n[nH]c2nc(N[C@H]3CC[C@H](NS(=O)(=O)CC(C)C)CC3)ncc12 is reported as 1.05 (bead binding, competition bead pull-down, measured: LINJ.36.1320; Leishmania donovani extract; 10 µM; relative to: vehicle).
Cc1ccc(NS(=O)(=O)c2c(C(=O)N3CCCCCC3)c(C)n(C)c2C)c(Cl)c1 gave an infection of 98.4% and 99.6% and 129% (Human alphaherpesvirus 1; viral infection; HaCaT; 100 µM, 36 h; relative to: untreated).
With COc1ccccc1-c1n[nH]c2nc(NC3CCN(C(=O)Cc4ccc(F)cc4F)CC3)ncc12 the relative abundance was 1.35 (bead binding, competition bead pull-down, measured: LMJF.34.3980; Leishmania donovani extract; 10 µM; relative to: vehicle).
Cc1cc(Oc2nc(N3CC[C@@H](c4ccncc4)C3)ncc2F)[nH]n1 has a normalised growth of 0.796% and -11.4% (Mycobacterium tuberculosis; THP-1, H37Rv non-replicating; 0.00949 µM, day 4 plus 1).

A few entries again:
The IC50 of CC[C@@H]1CN2CCc3c([nH]c4cccc(OC)c34)[C@@H]2C[C@@H]1/C(=C\OC)C(=O)OC is reported as 0.81 µg/mL and 0.72 µg/mL (rabbit anti-mitragynine polyclonal IgG; antigen binding, competitor, competitive indirect ELISA; 10% methanol; 90 min antibody-standard, 30 min antibody-antigen incubation).
Cc1cc(Oc2nc(N3CC[C@@H](c4ccncc4)C3)ncc2F)[nH]n1 has a normalised growth of 0.796% and -11.4% (Mycobacterium tuberculosis; THP-1, H37Rv non-replicating; 0.00949 µM, day 4 plus 1).
